Measurements from different studies.
Each line is one published result; not all experiments were run side by side. “And” joins repeats or separate records; there may be more than shown. ± gives the spread as reported.
UniProt Q007T0, sequence (whole entry, looked up): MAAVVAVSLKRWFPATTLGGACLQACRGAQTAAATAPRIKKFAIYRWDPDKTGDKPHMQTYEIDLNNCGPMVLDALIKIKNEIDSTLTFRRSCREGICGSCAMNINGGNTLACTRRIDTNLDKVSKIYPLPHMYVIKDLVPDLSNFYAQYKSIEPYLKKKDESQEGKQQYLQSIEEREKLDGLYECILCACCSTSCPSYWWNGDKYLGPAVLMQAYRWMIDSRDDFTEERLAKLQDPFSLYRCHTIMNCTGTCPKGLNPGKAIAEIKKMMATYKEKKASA
UniProt P06276, sequence (whole entry, looked up): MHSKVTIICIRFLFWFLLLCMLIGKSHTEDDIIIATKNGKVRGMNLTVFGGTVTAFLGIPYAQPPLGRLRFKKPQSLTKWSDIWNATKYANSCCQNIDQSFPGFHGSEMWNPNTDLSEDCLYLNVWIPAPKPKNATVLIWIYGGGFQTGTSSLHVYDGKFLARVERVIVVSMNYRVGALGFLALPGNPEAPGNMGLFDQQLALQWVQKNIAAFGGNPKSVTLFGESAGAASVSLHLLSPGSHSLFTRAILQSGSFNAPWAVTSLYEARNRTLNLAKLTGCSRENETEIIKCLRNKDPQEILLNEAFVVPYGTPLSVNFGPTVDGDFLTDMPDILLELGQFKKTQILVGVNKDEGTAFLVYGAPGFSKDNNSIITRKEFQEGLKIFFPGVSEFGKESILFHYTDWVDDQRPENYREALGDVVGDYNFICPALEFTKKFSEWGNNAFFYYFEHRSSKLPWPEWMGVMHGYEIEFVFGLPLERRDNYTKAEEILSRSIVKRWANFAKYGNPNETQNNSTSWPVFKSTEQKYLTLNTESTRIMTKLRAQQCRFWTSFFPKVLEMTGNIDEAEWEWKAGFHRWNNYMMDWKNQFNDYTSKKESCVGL
UniProt D0VWV4, sequence (whole entry, looked up): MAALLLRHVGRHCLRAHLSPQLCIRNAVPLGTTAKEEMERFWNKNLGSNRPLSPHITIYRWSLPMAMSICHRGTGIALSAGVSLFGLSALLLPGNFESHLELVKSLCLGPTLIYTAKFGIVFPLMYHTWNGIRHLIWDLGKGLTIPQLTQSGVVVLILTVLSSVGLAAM
UniProt A5GZW8, sequence (whole entry, looked up): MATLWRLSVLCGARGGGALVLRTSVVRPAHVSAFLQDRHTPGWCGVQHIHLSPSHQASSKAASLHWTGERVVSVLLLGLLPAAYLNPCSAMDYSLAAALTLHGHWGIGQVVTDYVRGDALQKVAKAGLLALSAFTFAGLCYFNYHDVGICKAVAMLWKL
UniProt Q05941, sequence (whole entry, looked up): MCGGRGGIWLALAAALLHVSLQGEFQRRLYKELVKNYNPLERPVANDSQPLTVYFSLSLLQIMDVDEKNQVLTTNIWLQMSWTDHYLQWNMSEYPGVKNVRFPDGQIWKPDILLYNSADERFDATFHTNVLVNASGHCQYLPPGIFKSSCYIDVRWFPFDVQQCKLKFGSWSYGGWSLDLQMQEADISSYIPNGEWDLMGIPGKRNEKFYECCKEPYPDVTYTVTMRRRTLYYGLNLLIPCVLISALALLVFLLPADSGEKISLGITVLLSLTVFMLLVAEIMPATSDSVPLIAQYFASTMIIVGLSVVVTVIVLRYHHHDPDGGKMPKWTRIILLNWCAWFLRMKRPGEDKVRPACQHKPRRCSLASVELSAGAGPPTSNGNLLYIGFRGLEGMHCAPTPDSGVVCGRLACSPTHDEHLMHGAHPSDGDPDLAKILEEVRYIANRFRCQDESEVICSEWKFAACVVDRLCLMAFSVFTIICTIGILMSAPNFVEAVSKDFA
UniProt Q9UEE5, sequence (whole entry, looked up): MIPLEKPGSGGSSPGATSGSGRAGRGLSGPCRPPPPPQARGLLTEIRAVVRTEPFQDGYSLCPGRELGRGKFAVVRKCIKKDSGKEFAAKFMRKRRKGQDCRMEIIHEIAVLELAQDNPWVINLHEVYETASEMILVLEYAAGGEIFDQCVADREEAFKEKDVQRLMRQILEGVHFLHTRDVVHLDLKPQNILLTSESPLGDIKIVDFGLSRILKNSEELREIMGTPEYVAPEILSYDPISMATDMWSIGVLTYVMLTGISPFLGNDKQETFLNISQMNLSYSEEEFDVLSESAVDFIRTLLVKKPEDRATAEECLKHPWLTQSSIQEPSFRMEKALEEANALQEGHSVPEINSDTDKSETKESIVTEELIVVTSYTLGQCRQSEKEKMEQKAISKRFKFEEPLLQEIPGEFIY
UniProt P05413, sequence (whole entry, looked up): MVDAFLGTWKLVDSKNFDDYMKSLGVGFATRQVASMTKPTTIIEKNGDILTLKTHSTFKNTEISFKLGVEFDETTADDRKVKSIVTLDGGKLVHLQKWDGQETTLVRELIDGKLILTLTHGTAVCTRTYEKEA
UniProt Q9NWZ3, sequence (whole entry, looked up): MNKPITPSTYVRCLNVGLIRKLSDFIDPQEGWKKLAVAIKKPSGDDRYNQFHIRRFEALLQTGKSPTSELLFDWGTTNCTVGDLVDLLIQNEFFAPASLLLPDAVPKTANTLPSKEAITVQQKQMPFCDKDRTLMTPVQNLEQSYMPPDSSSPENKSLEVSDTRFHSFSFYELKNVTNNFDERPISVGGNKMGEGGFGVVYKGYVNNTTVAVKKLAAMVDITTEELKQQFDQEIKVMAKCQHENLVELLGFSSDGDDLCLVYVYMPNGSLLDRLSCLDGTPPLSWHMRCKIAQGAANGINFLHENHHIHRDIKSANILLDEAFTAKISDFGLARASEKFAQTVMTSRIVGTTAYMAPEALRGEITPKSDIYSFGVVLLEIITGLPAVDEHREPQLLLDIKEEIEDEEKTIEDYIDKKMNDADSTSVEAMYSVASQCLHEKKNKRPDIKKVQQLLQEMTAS
UniProt Q9H7Z7, sequence (whole entry, looked up): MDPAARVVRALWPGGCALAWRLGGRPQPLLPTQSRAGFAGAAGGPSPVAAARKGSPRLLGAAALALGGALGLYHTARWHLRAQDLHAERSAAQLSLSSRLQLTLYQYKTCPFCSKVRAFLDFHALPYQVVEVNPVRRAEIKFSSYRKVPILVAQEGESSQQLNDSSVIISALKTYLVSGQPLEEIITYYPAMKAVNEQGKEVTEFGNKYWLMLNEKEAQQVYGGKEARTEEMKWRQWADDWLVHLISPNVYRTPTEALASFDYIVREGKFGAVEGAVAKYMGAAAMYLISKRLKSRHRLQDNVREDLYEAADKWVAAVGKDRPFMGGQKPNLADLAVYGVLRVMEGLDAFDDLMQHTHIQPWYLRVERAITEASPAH
UniProt P81908, sequence (whole entry, looked up): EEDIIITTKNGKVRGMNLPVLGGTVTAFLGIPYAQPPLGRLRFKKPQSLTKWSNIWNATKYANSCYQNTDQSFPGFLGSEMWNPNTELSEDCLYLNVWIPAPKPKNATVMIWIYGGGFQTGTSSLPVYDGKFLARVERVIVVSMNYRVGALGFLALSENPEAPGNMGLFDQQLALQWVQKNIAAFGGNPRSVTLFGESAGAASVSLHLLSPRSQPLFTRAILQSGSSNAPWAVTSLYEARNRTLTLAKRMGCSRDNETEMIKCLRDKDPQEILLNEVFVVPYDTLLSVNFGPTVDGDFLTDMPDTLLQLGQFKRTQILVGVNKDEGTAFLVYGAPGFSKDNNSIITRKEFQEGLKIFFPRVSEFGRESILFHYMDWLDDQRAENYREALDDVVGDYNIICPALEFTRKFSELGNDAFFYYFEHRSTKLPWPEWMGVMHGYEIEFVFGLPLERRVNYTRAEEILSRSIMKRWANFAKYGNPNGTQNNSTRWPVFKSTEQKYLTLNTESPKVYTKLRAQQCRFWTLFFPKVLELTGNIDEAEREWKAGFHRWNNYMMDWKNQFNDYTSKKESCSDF
UniProt P08173, sequence (whole entry, looked up): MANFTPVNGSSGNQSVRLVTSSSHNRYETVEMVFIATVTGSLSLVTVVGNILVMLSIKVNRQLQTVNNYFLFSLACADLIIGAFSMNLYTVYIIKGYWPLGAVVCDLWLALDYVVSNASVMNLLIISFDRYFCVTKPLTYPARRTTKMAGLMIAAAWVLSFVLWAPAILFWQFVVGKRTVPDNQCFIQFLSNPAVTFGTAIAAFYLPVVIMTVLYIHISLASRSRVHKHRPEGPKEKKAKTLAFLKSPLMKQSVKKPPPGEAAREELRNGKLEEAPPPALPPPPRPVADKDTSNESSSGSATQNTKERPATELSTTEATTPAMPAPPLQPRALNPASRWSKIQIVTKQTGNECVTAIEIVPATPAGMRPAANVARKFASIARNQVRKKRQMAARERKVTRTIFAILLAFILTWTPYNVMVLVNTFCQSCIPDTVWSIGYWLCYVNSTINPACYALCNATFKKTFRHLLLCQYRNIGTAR
UniProt Q92743, sequence (whole entry, looked up): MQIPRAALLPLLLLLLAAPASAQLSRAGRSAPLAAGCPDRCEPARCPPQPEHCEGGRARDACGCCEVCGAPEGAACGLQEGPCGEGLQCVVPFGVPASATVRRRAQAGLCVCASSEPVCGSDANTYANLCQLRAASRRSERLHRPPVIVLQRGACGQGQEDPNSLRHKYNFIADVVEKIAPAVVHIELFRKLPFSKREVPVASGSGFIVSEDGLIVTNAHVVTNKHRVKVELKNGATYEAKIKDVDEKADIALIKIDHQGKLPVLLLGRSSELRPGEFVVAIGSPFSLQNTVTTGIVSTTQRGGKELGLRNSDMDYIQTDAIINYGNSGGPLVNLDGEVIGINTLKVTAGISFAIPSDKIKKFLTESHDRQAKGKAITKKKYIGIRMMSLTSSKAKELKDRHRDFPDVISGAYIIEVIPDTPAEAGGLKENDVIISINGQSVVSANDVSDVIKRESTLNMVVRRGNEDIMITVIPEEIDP

CN[C@@H]1C[C@H]2O[C@@](C)([C@@H]1OC)n1c3ccccc3c3c4c(c5c6ccccc6n2c5c31)C(=O)NC4
ΔTm (RAC-alpha serine/threonine-protein kinase (AKT1, Homo sapiens, UniProt P31749); binder, differential scanning fluorimetry): 0.4 °C

C[C@H]1CN(c2n[nH]c3nc(N[C@H]4CC[C@H](NS(=O)(=O)CCC(F)(F)F)CC4)ncc23)CCO1
remaining binding (Prostaglandin E synthase 2 (Homo sapiens, UniProt Q9H7Z7); Kinobeads competition, item: PTGES2; 0.16 µM, unit not given; relative to: vehicle): 1.46

O=c1c2ccccc2oc2cc(OCCCCc3ccccc3)ccc12
reaction velocity (Acetylcholinesterase (ache, Electrophorus electricus, UniProt O42275); enzyme activity; 0.36 µM, together with: substrate 3.45 mM; higher = faster reaction): 0.003 a.u.

COc1cccc(OC)c1C(=O)N[C@@H]1C(=O)N2[C@@H]1SC(C)(C)[C@@H]2C(=O)O
kinact/KI (Penicillin-binding protein 1A (pbpA, Streptococcus pneumoniae, UniProt Q8DR59); inhibitor): 5.4 ± 1.2 M⁻¹ s⁻¹

CN(C(=O)n1cnc(-c2ccc[n+]([O-])c2)c1)C1CCCCC1
inhibition (B1 bradykinin receptor (BDKRB1, Homo sapiens, UniProt P46663); radioligand binding; 10 µM, together with: [3H]des-Arg10-kallidin): 1%

CCCCC/C=C\C/C=C\C/C=C\C/C=C\CCCC(=O)NCCO
maximal open probability (Transient receptor potential cation channel subfamily V member 1 (Trpv1, Mus musculus, UniProt Q704Y3, T551V); patch clamp): 0.78 ± 0.17

NCC(=O)NCCC(c1ccccc1)c1ccccc1
IC50 (Plasmodium falciparum; W2): 2.51 µM

[2H]c1c([2H])c([C@]2([2H])CCCN2C(=O)C(C)(C)Oc2ccc3cn[nH]c3c2)c([2H])c([2H])c1C([2H])([2H])[2H]
remaining binding (Interleukin-1 receptor-associated kinase 4 (IRAK4, Homo sapiens, UniProt Q9NWZ3); KINOMEscan; 1 µM; relative to: DMSO control): 88%

COc1ccc(N2C(=O)N(c3c(C)cccc3Cl)Cc3cnc(Nc4ccc(C5CCN(C)CC5)cc4OC)nc32)nc1
inhibition (Serine/threonine-protein kinase N1 (PKN1, Homo sapiens, UniProt Q16512); kinase activity; 0.5 µM): 0.605%

CC12CCC(CC1)C(C)(C)O2
activity decrease (1,8-cineole 2-endo-monooxygenase (cinA, Citrobacter braakii, UniProt Q8VQF6, N242A); NADPH turnover; concentration not given, N242A mutant; relative to: wild type): 70%

CC1=C(C)C(=O)C(CCCCC#CCCCC#CCO)=C(C)C1=O
IC50 (Plasmodium falciparum; HB3): 10 µM

CN(C)C(=O)Oc1ccc(/C=C/C(=O)NC2CCN(Cc3ccccc3)CC2)cc1
selectivity ratio (Cholinesterase (BCHE, Equus caballus, UniProt P81908); Ellman; equine serum BuChE; relative to: AChE IC50 over BuChE IC50): 0.5

O=C(c1ccc(Cl)cc1)N1CCN2C(=O)N(OC(=O)N3CCOc4ccccc43)C(=O)C2C1 (stereo not shown)
median protein ratio (Serine protease HTRA1 (Homo sapiens, UniProt Q92743); MS-based ABPP; SW-620 conditioned medium; 10 µM, 1 h, 37 °C; relative to: compound over DMSO, lower = more inhibition): 1.15

CC1(C)CC(NC(=O)C(=O)Nc2ccc(Cl)cc2)CC(C)(C)N1
binding free energy (Envelope glycoprotein gp160, gp120 (env, Human immunodeficiency virus type 1 group M subtype B, UniProt P35961); urea denaturation, Trp fluorescence; PBS; 100 µM, pH 7.5): -6.9 kcal/mol

O=C(O)c1cccc(N(Cc2cccnc2)c2ccc(OC(F)F)c(OC(F)F)c2)c1
fold change (Fatty acid-binding protein, heart (Homo sapiens, UniProt P05413); binding, affinity selection mass spectrometry; 100 nM, pooled screen; relative to: other proteins): 22.9

CCCCn1c(-c2ccccc2)nc(-c2ccccc2)c1CN(Cc1ccc2c(c1)OCO2)Cc1ccc2c(c1)OCO2
efficacy (Cholinesterase (BCHE, Homo sapiens, UniProt P06276); concentration not given, Triton): -92.6 ± 1.54%

CO[C@H]1C[C@@H]2CC[C@@H](C)[C@@](O)(O2)C(=O)C(=O)N2CCCC[C@H]2C(=O)O[C@H]([C@H](C)C[C@@H]2CC[C@@H](OC(=O)NCCOCCOCCOCCOCCOCCOCCOCCOCCC(=O)N3CCc4cc(Cn5nc(-c6ccc7oc(N)nc7c6)c6c(N)ncnc65)ccc4C3)[C@H](OC)C2)C[C@@H](O)[C@H](C)/C=C(\C)[C@@H](O)[C@@H](OC)C(=O)[C@H](C)C[C@H](C)/C=C/C=C/C=C/1C
anaemia incidence (patients with advanced solid tumours; intravenous, 12 mg weekly, grade 3 or higher): 0%

COc1ccc2c3c([nH]c2c1)CCN(C)CC3.O=C(O)/C=C/C(=O)O
recovery time constant (Neuronal acetylcholine receptor subunit alpha-7 (Chrna7, Rattus norvegicus, UniProt Q05941); ion current, inhibitor, two-electrode voltage clamp; Xenopus laevis oocytes; 10 µM, rat receptor, together with: acetylcholine 100 µM): 8.6 s

O=C(Nc1cccnn1)N1CCC(=Cc2cccc(Oc3ccc(C(F)(F)F)cn3)c2)CC1
inhibition (Serine/threonine-protein kinase 17A (STK17A, Homo sapiens, UniProt Q9UEE5); kinase activity, inhibitor; 50 µM, human): 12%

CC1=CC(=O)C=C(C)C1=O
P+QA− recombination rate (Reaction center protein M chain, QA site (pufM, Cereibacter sphaeroides, UniProt P0C0Y9); charge recombination; Rhodobacter sphaeroides, LDAO detergent solution; pH 7.8, 298 K, quinone reconstituted in QA site): 1.75 s⁻¹

CC1(C)CC(=O)c2cc3c(C#N)cn(Cc4ccccc4)c3nc2C1
IC50 fold change (Gag-Pol polyprotein, reverse transcriptase (gag-pol, Human immunodeficiency virus type 1 group M subtype B, UniProt P04585); DNA polymerase activity, inhibitor, FRET; relative to: mutant over wild type RT): 17

CCCCNc1ccc(C(=O)OCCN(CC)CC)cc1
efficacy (Cholinesterase (BCHE, Homo sapiens, UniProt P06276); concentration not given, Triton): -108 ± 11%

O=C(O)c1ccc2nc(-c3cc(Cl)cc(Cl)c3)oc2c1
probe binding remaining (Transthyretin (TTR, Homo sapiens, UniProt P02766); fluorescent probe exclusion; human serum; 10 µM, 15:00:00): 10.5% and 12.1% and 9.8% and 6.49%

COc1cc(Nc2ncc(F)c(Nc3ccc4c(n3)NC(=O)C(C)(C)O4)n2)cc(OC)c1OC
inhibition (Mitogen-activated protein kinase kinase kinase 7 (MAP3K7, Homo sapiens, UniProt O43318); binding, KINOMEscan; 10 µM, TAK1 kinase): 0%

Nc1ncnc2c1ncn2[C@@H]1O[C@H](COP(=O)(O)OP(=O)(O)O)[C@@H](O)[C@H]1O
association constant (Cell cycle histidine kinase CckA, R374A; cytoplasmic region (Caulobacter vibrioides, UniProt Q9X688, R374A); binding, ITC; together with: without c-di-GMP): 2810 ± 292 M⁻¹

CN1CCN(c2cc(-c3ccncc3)c(-c3ccc4ccccc4c3)nn2)CC1
activation (Muscarinic acetylcholine receptor M4 (CHRM4, Homo sapiens, UniProt P08173); agonist, FLIPR; 12.5 µM): 4.2%

O=C(Nc1cnccc1Cl)N1CCN(Cc2ccc3c(c2)OC(F)(F)O3)CC1
probe labelling (Protein S100-A16 (Rattus norvegicus, UniProt A0ACM8QDC9); competitive ABPP with azido-FP probe; rat brain membrane fraction; 10 µM, unit not given; relative to: DMSO): -14.5

CC[N+](CC)(CC)CCOC(=O)C(C1CCCC1)C1CCCC1
efficacy (Cholinesterase (BCHE, Homo sapiens, UniProt P06276); concentration not given, Triton): -89.4 ± 2.95%

C=C(CN(C(=O)c1c(C(F)F)nn(C)c1F)C1CC1)c1ccc(Cl)cc1Cl
reaction velocity (SDHD/SDHC/SDHB (Sus scrofa, UniProt A5GZW8+D0VWV4+Q007T0); enzyme activity, inhibitor, DCIP reduction; pig; 0.1 µM, together with: DCIP 190 µM): 0.0297 µM/s and 0.0293 µM/s

Nc1ncc(-c2nc(N3CCOCC3)nc(N3CCOCC3)n2)c(C(F)F)n1
remaining binding (Tyrosine-protein kinase ABL1, phosphorylated (ABL1, Homo sapiens, UniProt P00519, F317I); KINOMEscan; 10 µM): 70%

Oc1ccc(C(c2ccc(O)cc2)(C(F)(F)F)C(F)(F)F)cc1
activity (Sarcoplasmic/endoplasmic reticulum calcium ATPase 1 (ATP2A1, Oryctolagus cuniculus, UniProt P04191); inhibitor; concentration not given): inactive

A few entries again:
CC1(C)CC(=O)c2cc3c(C#N)cn(Cc4ccccc4)c3nc2C1
IC50 fold change (Gag-Pol polyprotein, reverse transcriptase (gag-pol, Human immunodeficiency virus type 1 group M subtype B, UniProt P04585); DNA polymerase activity, inhibitor, FRET; relative to: mutant over wild type RT): 17

CCCCNc1ccc(C(=O)OCCN(CC)CC)cc1
efficacy (Cholinesterase (BCHE, Homo sapiens, UniProt P06276); concentration not given, Triton): -108 ± 11%

O=C(O)c1ccc2nc(-c3cc(Cl)cc(Cl)c3)oc2c1
probe binding remaining (Transthyretin (TTR, Homo sapiens, UniProt P02766); fluorescent probe exclusion; human serum; 10 µM, 15:00:00): 10.5% and 12.1% and 9.8% and 6.49%
